# Literature values as cited in several papers.
# Compare with care: the assays were run in different laboratories. Values joined by “and” are separate records of one study, mostly repeats; a detail may differ. Numbers after ± are the reported error.
# B1: CCL1; sequence looked up; chain KSMQVPFSRCCFSFAEQEIPLRAILCYRNTSSICSNEGLIFKLKRGKEACALDTVGWVQRHRKMLRHCPSKRK
# Chain of UniProt P45481 (whole entry, looked up): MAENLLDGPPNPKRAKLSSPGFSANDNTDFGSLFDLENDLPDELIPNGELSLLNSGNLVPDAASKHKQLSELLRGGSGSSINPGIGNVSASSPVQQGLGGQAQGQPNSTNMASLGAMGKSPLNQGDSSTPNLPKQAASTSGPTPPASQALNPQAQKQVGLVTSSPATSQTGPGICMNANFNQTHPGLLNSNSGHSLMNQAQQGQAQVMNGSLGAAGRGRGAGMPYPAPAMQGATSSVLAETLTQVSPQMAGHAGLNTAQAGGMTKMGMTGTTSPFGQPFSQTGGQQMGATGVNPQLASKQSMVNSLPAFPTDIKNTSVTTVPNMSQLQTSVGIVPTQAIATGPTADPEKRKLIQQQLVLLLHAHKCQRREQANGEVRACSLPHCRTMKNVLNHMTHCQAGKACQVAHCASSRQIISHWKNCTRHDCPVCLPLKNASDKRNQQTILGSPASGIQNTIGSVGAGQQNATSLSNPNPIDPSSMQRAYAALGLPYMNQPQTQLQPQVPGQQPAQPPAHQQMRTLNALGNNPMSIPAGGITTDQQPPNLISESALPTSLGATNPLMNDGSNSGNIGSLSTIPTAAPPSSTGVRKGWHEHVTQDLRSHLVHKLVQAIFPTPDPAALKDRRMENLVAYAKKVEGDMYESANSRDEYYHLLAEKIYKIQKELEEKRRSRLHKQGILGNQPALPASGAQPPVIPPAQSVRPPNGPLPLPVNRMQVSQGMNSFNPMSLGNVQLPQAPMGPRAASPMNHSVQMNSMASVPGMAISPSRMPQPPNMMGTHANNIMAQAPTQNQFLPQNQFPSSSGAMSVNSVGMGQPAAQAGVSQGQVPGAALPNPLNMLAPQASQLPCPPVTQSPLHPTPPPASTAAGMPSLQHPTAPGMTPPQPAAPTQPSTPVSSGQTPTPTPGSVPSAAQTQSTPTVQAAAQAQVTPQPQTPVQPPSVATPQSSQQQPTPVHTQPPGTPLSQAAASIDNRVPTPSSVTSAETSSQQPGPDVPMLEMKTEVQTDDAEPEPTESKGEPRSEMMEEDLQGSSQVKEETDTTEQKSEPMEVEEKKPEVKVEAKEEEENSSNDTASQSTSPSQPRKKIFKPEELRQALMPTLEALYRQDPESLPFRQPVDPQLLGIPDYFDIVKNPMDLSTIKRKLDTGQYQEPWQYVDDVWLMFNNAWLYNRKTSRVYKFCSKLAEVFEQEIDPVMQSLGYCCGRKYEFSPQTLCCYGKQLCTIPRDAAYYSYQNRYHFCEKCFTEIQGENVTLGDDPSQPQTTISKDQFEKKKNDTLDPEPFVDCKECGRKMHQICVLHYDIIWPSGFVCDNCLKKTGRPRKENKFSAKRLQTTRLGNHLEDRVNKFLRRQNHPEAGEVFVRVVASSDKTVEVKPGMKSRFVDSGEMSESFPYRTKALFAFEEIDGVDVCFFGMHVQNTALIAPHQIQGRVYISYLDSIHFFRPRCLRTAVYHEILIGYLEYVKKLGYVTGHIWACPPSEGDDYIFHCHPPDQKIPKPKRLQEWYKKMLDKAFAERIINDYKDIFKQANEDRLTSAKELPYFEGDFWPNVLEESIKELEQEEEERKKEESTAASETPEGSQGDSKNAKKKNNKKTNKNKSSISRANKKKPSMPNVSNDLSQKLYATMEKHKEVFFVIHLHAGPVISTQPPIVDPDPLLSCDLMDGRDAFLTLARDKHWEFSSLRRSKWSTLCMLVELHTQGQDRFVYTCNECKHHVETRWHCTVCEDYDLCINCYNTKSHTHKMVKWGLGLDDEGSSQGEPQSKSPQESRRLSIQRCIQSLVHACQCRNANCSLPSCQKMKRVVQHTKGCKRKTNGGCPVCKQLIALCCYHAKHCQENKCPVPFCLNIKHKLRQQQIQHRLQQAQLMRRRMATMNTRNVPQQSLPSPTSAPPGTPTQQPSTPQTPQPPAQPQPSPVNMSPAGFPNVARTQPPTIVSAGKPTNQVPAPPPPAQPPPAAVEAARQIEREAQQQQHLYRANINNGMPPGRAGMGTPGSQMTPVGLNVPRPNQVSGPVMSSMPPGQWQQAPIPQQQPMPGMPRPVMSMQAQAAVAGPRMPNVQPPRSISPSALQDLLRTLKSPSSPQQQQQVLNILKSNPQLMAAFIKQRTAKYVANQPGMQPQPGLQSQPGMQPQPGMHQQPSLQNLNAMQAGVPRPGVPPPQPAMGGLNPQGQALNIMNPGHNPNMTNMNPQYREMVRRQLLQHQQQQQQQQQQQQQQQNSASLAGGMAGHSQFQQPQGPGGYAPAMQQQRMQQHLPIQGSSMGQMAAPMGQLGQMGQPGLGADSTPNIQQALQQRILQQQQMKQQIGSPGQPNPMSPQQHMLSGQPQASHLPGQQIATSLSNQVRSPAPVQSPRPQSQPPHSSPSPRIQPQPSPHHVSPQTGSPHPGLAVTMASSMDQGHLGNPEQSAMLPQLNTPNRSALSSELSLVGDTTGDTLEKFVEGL
# Chain of UniProt Q99967 (whole entry, looked up): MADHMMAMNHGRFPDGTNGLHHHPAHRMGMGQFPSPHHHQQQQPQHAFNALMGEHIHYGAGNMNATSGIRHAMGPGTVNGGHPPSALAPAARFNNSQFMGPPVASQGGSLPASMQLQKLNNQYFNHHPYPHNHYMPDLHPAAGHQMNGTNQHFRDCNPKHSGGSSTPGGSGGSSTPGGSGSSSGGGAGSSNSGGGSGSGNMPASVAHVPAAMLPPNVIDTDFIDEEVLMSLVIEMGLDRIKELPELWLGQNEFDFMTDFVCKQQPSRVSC
# Chain of UniProt P04692 (whole entry, looked up): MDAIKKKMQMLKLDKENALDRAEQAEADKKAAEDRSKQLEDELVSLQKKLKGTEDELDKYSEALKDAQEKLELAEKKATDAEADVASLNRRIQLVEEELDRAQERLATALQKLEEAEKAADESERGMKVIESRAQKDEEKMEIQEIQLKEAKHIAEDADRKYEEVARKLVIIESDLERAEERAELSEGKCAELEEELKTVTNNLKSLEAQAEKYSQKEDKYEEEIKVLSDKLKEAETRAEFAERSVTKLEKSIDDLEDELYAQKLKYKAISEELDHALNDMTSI
# Chain of UniProt Q96ES7 (whole entry, looked up): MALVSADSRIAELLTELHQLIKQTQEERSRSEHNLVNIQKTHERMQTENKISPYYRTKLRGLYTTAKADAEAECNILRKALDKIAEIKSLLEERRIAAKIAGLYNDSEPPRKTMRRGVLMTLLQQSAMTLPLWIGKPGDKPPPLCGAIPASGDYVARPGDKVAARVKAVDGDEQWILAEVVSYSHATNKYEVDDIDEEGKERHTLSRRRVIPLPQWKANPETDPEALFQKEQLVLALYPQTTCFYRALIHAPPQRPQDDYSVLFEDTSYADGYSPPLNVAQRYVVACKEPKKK
# Chain of UniProt O76064 (whole entry, looked up): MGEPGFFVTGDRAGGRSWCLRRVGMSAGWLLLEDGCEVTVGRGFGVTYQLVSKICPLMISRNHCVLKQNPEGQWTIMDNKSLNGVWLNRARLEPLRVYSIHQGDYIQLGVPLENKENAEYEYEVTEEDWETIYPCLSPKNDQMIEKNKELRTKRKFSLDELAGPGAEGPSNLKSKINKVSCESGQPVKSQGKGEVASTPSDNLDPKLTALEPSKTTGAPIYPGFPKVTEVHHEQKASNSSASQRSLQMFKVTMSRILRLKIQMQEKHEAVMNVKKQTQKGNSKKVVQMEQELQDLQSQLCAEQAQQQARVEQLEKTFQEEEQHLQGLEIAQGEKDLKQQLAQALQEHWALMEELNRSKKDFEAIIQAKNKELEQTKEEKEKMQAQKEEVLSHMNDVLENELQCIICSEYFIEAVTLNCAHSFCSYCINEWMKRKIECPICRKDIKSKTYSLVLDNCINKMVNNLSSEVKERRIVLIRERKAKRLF
# Chain of UniProt Q9ULZ3 (whole entry, looked up): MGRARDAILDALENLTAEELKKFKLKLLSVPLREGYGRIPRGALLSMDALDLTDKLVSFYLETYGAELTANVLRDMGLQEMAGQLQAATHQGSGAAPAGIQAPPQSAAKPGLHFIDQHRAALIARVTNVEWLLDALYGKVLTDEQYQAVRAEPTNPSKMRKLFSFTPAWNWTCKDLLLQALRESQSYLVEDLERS
# Chain of UniProt P78324 (whole entry, looked up): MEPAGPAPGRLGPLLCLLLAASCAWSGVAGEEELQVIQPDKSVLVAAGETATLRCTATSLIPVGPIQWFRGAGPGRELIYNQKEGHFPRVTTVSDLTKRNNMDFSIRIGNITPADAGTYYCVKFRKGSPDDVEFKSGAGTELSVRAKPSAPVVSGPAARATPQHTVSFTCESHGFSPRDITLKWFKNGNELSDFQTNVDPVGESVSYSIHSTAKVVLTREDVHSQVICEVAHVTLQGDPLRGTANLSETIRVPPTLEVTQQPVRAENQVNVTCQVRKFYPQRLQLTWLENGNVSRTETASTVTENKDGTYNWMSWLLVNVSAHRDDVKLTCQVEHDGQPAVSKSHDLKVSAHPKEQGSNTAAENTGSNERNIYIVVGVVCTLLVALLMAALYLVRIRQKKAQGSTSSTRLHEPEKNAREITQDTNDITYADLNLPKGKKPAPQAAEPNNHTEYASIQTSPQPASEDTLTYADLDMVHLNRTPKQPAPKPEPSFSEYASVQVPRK
# Chain of UniProt P61088 (whole entry, looked up): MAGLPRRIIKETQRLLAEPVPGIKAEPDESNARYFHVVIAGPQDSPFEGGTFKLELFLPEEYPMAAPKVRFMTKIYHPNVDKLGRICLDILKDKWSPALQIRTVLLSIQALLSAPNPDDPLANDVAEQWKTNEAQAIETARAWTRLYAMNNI
Molecule,tested on,test,test system,setting,measurement,value
"Notch ankyrin domain (Drosophila melanogaster, UniProt P07207)","Deltex tandem WWE domains (Drosophila melanogaster, UniProt Q23985)",analytical ultracentrifugation,,,Kd,5000 nM
VLDLR fragment (Homo sapiens),"fibrinogen beta chain residues 15-64 (Homo sapiens, UniProt P02675)",SPR,,,Kd,6100 nM
BTN2A1 fragment (Homo sapiens),"BTN3A1 fragment, HMBPP-bound (Homo sapiens)",ITC,,,Kd,890 nM
HIF1A fragment (Homo sapiens),"CBP residues 340-439 (Mus musculus, UniProt P45481)",fluorescence anisotropy,,,Kd,10 nM and 7.4 nM
MSYRKELEKYRDLDEDKILGALTEEELRKLENELEELD,"Tropomyosin alpha-1 chain (Tpm1, Rattus norvegicus, UniProt P04692)",CD thermal unfolding,,30 °C,Kd,1000 ± 130 nM
RRANAALKAGELYKCILY,"Collagen alpha-1(I) chain (Homo sapiens, UniProt P02452)",binding,,,Kd,10 nM
"CITED2 CTAD (Homo sapiens, UniProt Q99967)","CBP TAZ1 domain (Mus musculus, UniProt P45481)",fluorescence anisotropy competition,,,Kd,0.2 nM
"SIRPα IgV domain (Homo sapiens, UniProt P78324)","CD47 IgV domain (Homo sapiens, UniProt Q08722)",SPR,,,Kd,1500 nM
"SGF29 tandem Tudor domain (Homo sapiens, UniProt Q96ES7)","histone H3 peptide, K4me3 (UniProt P68431)",ITC,,,Kd,13800 nM
B1 (CCL1),CCR8 Q91W mutant,"IP accumulation, agonist",,,EC50,69 nM
"CITED2 activation domain (Homo sapiens, UniProt Q99967)",CREBBP TAZ1 domain (UniProt P45481),not stated,,,Kd,10 nM
SVIWRKLFFIFIKRSGNWIKKVEKRQNLL,Pseudomonas aeruginosa,,"peptide, ATCC 15692",,MIC,1 µM
"RNF8 C-terminal region (Homo sapiens, UniProt O76064)","UBE2N (Homo sapiens, UniProt P61088)",SPR,,,Kd,2000 nM
"BRCA1 BRCT (Homo sapiens, UniProt P38398)","BACH1 phosphopeptide, phosphoserine (Homo sapiens, UniProt Q9BX63)",ITC,,,Kd,430 nM
pegcetacoplan,,,human,"30 mg/day for 28 days (0.43 mg/kg), arithmetic mean",Cmax,77 µg/mL
"synGAP CC-PBM region (Rattus norvegicus, UniProt Q9QUH6)","DLG4 PDZ3-SH3-GK (Rattus norvegicus, UniProt P31016)",ITC,,,Kd,140 nM
fibrin fragment (Homo sapiens),"VLDLR repeats 1-8 (Homo sapiens, UniProt P98155)",SPR,,,Kd,67000 nM
MSTRSSSIRRLVEAVRTRFRAALRTVLFFALRTTKRRPRR,Escherichia coli,,peptide,,MIC,20.8 µM
"PYCARD CARD domain (Homo sapiens, UniProt Q9ULZ3)",itself,NMR titration,,,Kd,50000 nM

# Repeated from above:
Molecule,tested on,test,test system,setting,measurement,value
"synGAP CC-PBM region (Rattus norvegicus, UniProt Q9QUH6)","DLG4 PDZ3-SH3-GK (Rattus norvegicus, UniProt P31016)",ITC,,,Kd,140 nM
"SGF29 tandem Tudor domain (Homo sapiens, UniProt Q96ES7)","histone H3 peptide, K4me3 (UniProt P68431)",ITC,,,Kd,13800 nM
